{"data": "Published values collected from several papers", "note": "Lines come from different studies, so protocols differ. ± marks the error that the study gave."}
{"Compound": "COc1ccc(-c2cc(=O)c3c(OC)c(OC)c(OC)cc3o2)cc1", "test system": "C57BL/6 mouse, male, colon", "setting": "oral, 1% w/w in diet, 6 weeks, orange peel extract diet", "scale": "reference: content in orange peel", "measurement": "tissue to peel content ratio", "value": "0.198%"}
{"Compound": "CC(C)C[C@H](NC(=O)[C@H](CCC(=O)O)NC(=O)[C@H](CCC(=O)O)NC(=O)[C@H](CC(=O)O)NC(=O)[C@H](CCC(=O)O)NC(=O)[C@H](CCC(=O)O)NC(=O)[C@H](CCC(=O)O)NC(=O)[C@@H](N)CC(=O)O)C(=O)O", "test system": "rat, CSF", "setting": "intranasal, 5.5 mg/kg, 60 min", "measurement": "concentration", "value": "1.03 ng/mL"}
{"Compound": "CN[C@@](C)(C[18F])C(=O)O", "test system": "SCID mouse U87 xenograft, heart", "setting": "120 min, post injection", "measurement": "tissue uptake", "value": "3.9 ± 0.6 %ID/g"}
{"Compound": "CSCC[C@@H]1NC(=O)[C@H](CC(=O)O)NC(=O)CNC(=O)[C@H](CCCNC(=N)N)NC(=O)[C@H](C)NC(=O)[C@H](CCC(=O)O)NC(=O)[C@H](CCCNC(=N)N)NC(=O)[C@@H]2CSSC[C@@H]3NC(=O)[C@H](CO)NC(=O)[C@H]([C@@H](C)O)NC(=O)[C@@H]4CCCN4C(=O)[C@H](C)NC(=O)[C@H](Cc4c[nH]c5ccccc45)NC(=O)[C@H](CC(=O)O)NC(=O)CNC(=O)[C@H](CCCNC(=N)N)NC(=O)CNC(=O)[C@H](CCC(N)=O)NC(=O)[C@@H]4CCCN4C(=O)[C@@H](NC(=O)CNC(=O)C(C)F)CSSC[C@H](NC(=O)CNC(=O)[C@H](C)NC(=O)[C@H](CC(C)C)NC(=O)[C@H](CSSC[C@@H](C(=O)NCC(N)=O)NC(=O)[C@H]([C@@H](C)O)NC(=O)[C@H](CCCNC(=N)N)NC(=O)[C@@H]4CCCN4C1=O)NC(=O)[C@H](CC(=O)O)NC(=O)[C@H](CO)NC(=O)[C@H](CC(=O)O)NC(=O)[C@H](CCC(N)=O)NC(=O)[C@H](CO)NC3=O)C(=O)N[C@@H](C(C)C)C(=O)N2 (stereo partly drawn) [fluorine-18 labelled]", "test system": "nude mouse, U-87 MG xenograft, bone", "setting": "intravenous, 2.5 h, added: cyclo(RGDyK) co-injected", "measurement": "tissue uptake", "value": "0.37 ± 0.25 %ID/g"}
{"Compound": "CC[C@H](C)[C@H](NC(=O)[C@H](CCCCN)NC(=O)[C@H](CCCCN)NC(=O)[C@H](CC(C)C)NC(=O)[C@@H](NC(=O)[C@H](CCCCN)NC(=O)[C@H](C)NC(=O)[C@H](C)NC(=O)[C@@H](NC(=O)CNC(=O)[C@H](C)NC(=O)[C@@H](NC(=O)[C@H](CCCCN)NC(=O)[C@@H]1CCCN1C(=O)[C@H](Cc1ccccc1)NC(=O)[C@@H](N)Cc1ccccc1)C(C)C)C(C)C)C(C)C)C(=O)N[C@@H](Cc1ccccc1)C(=O)N[C@H]1CSSC[C@@H](C(=O)O)NC(=O)[C@H](CCCCN)NC(=O)[C@H](CCCCN)NC(=O)[C@H](CO)NC(=O)[C@H]([C@@H](C)CC)NC(=O)[C@H]([C@@H](C)O)NC1=O", "test": "haemolysis", "test system": "horse erythrocytes", "setting": "2 h, 37 °C", "measurement": "HC10", "value": "13.7 µM"}
{"Compound": "Cc1c(P(=S)(c2ccccc2)c2ccccc2)n2ccccc2[n+]1C/C=C/c1ccccc1", "test system": "mouse, plasma", "setting": "intraperitoneal, 10 mg/kg, 1 h", "measurement": "plasma concentration", "value": "259 ng/mL"}
{"Compound": "CCCCCn1cc(-c2cn(C34CC5CC(CC(C5)C3)C4)nn2)c(=O)c2cc(-c3ccco3)ccc21", "test": "HPLC", "test system": "water with 5% DMSO", "setting": "18 h", "measurement": "kinetic solubility", "value": "132 µg/mL"}
{"Compound": "[123I]c1cncc(OC[C@@H]2CCN2)c1", "test": "SPECT", "test system": "human, cerebellum", "setting": "intravenous bolus plus infusion, 7.7 mCi", "scale": "reference: tissue over plasma", "measurement": "tissue/plasma ratio", "value": 26.9}
{"Compound": "COC(=O)N[C@H](C(=O)N1CCC[C@H]1C(=O)Nc1ccc([C@@H]2CC[C@@H](c3ccc(NC(=O)[C@@H]4CCCN4C(=O)[C@@H](NC(=O)OC)C(C)C)cc3)N2c2ccc(C(C)(C)C)cc2)cc1)C(C)C", "test system": "healthy human volunteers, plasma", "setting": "oral, dose not given, rosuvastatin interaction study", "scale": "reference: given without rosuvastatin", "measurement": "AUC(0-24)", "value": "1020 ng·h/mL"}
{"Compound": "CCCCCOc1ccc(-c2ccc(-c3ccc(C(=O)N[C@H]4C[C@@H](O)[C@@H](O)NC(=O)[C@@H]5[C@@H](O)[C@@H](C)CN5C(=O)[C@H]([C@@H](C)O)NC(=O)[C@H]([C@H](O)[C@@H](O)c5ccc(O)cc5)NC(=O)[C@@H]5C[C@@H](O)CN5C(=O)[C@H]([C@@H](C)O)NC4=O)cc3)cc2)cc1", "test system": "human neonates and infants, plasma", "setting": "intravenous, 1.5 mg/kg/day after 3 mg/kg loading, 0-24 h", "measurement": "AUC steady state", "value": "84300 ng·h/mL"}
{"Compound": "CCc1c2c(nc3ccc(OC(=O)N4CCC(NCCCCC(=O)O)CC4)cc13)-c1cc3c(c(=O)n1C2)COC(=O)C3(O)CC (stereo not drawn)", "test system": "plasma", "setting": "concentration not given, added: methimazole", "scale": "reference: without methimazole", "measurement": "AUC", "value": "no effect"}
{"Compound": "COc1ccc(C[C@@H]2NC(=O)[C@H]([C@@H](C)O)NC(=O)[C@@H]3[C@@H]4CCN3C(=O)[C@@H]3Cc5cn(c6ccc(F)cc56)CCCCCCN(Cc5ccc(cc5)CCNC(=O)[C@]5(C)CCCN5C2=O)C(=O)CCC(=O)N[C@@H](C)C(=O)N[C@H](CNC(=O)CCCCC[N+](C)(C)C)C(=O)N[C@@H](Cc2cccc(c2)CNC(=O)CO4)C(=O)N3)cc1", "test system": "fasted healthy humans, plasma", "setting": "oral, 100 mg single dose, with 1800 mg Labrasol, geometric mean", "measurement": "AUC(0-t)", "value": "1.02 µM·h"}
{"note": "A few entries again:"}
{"Compound": "CC(C)C[C@H](NC(=O)[C@H](CCC(=O)O)NC(=O)[C@H](CCC(=O)O)NC(=O)[C@H](CC(=O)O)NC(=O)[C@H](CCC(=O)O)NC(=O)[C@H](CCC(=O)O)NC(=O)[C@H](CCC(=O)O)NC(=O)[C@@H](N)CC(=O)O)C(=O)O", "test system": "rat, CSF", "setting": "intranasal, 5.5 mg/kg, 60 min", "measurement": "concentration", "value": "1.03 ng/mL"}
{"Compound": "CN[C@@](C)(C[18F])C(=O)O", "test system": "SCID mouse U87 xenograft, heart", "setting": "120 min, post injection", "measurement": "tissue uptake", "value": "3.9 ± 0.6 %ID/g"}
